# Results of several laboratories.
# Each numbered part is a random draw from the data of one study; scales do not carry over between parts. Substitutions count along the parent as printed.

# Study 1
# Target: Histone acetyltransferase KAT6A, winged helix 1, GST fusion (KAT6A, Homo sapiens, UniProt Q92794, residues 1-85)
# Technique: protein binding microarray
# Molecule type: double-stranded DNA, one strand shown
# Matrix: in vitro
# Tested at: not given
# Setting: 8-mer, flanks averaged, mean of 2 arrays, mostly near background
# Reference: not given
# Reading: higher = stronger binding
# Construct (chain): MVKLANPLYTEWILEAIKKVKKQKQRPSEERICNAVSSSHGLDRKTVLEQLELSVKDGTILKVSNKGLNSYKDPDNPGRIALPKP
Sequence,E-score
ACCGTTCG,0.0222
ATTCCACC,-0.187
GTTGCGTA,0.149
CTAAGCCA,-0.211
AAGGATCA,-0.207
GCAGCGAC,0.219
TAAGGATA,-0.0973
GCTTGTTA,-0.0511
CGATCCCA,-0.0468
GCTCTAAA,-0.0645
CCGACTCG,0.0877
ACTGTGAG,-0.184
AAGTCCAC,-0.299
CGGGTAAA,0.0893
GCAATGGA,-0.109
CCCCATAC,0.151

# Study 2
# Target: HLF, bZIP domain (human)
# Technique: DHFR protein complementation
# Matrix: yeast
# Setting: single substitutions, most at no-binding floor
# Reference: wild-type JUN-FOS pair
# Reading: higher = stronger binding
# Starting sequence: JUN, bZIP domain (human); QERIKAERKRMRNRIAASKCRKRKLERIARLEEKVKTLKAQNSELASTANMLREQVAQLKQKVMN; partner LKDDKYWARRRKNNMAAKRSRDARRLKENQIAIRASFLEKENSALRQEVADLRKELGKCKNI
Variant,binding fitness [natural log]
E33T,-1.52
L52Y,-1.44
K34H,-1.33
T37P,-1.53
S43F,-1.45
A40S,-1.48
V56P,-1.55
S47K,-1.24
A46K,-1.36
I28A,-1.42
E44S,-1.53
N42W,-1.49
L45P,-1.54
S47G,-1.38
A46S,-1.27
L59A,-1.26
N42H,-1.32
L52K,-1.47
L38K,-1.41
M51A,-1.35
R53N,-1.52
A57W,-1.46
L31C,-1.36
E32F,-1.38
N42D,-1.47

# Study 3
# Target: CCNF, cyclin fold, Cln2 fusion (human)
# Technique: yeast growth competition, sequencing
# Matrix: yeast
# Setting: strong parent motif
# Reference: not given
# Reading: higher = stronger binding
# Starting sequence: MICAL3 docking peptide (human); LQLRRQLSFSEDS
Variant,normalised enrichment score
LQLRRQLSFSEAS [D12A],5.85
LQLRRQLSFSKDS [E11K],4.19
LQNRRQLSFSEDS [L3N],1.07
LQTRRQLSFSEDS [L3T],7.29
LQLRWQLSFSEDS [R5W],0.38
LQLRRQLSFHEDS [S10H],5.08
LQLRRQLLFSEDS [S8L],8.47
LQLRRQLKFSEDS [S8K],7.98
LQLRRQLTFSEDS [S8T],6.46
LQLRRQLSFVEDS [S10V],5.03
LQLRRQLSFYEDS [S10Y],6.02
LQLRRQLIFSEDS [S8I],8.52
LQLRRQGSFSEDS [L7G],-0.161
LYLRRQLSFSEDS [Q2Y],5.39
LQSRRQLSFSEDS [L3S],4.58
LQERRQLSFSEDS [L3E],2.22
LQLRRQLAFSEDS [S8A],5.8
LQLRRQASFSEDS [L7A],-0.153
LQLRRQLSTSEDS [F9T],0.139
LQLRRQLSSSEDS [F9S],-0.3
LQLRRQLSFSPDS [E11P],6.2

# Study 4
# Target: ABI1, truncated, D143A, DHFR fusion (Arabidopsis thaliana)
# Technique: DHFR PCA, deep sequencing
# Matrix: yeast
# Setting: methotrexate growth selection, single substitutions
# Added: (+)-ABA 0.032 µM
# Reference: wild-type fitted maximum
# Reading: higher = stronger binding
# Starting sequence: PYL1, truncated, DHFR fusion (Arabidopsis thaliana); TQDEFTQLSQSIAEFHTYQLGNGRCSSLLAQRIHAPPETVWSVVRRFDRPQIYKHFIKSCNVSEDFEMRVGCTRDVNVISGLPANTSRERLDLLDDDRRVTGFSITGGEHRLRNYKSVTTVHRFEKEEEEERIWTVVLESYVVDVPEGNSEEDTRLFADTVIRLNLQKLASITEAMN
Variant,relative binding score
K58S,9.83%
I105V,19.5%
Q19E,47.6%
G102W,7.21%
D144P,-6.23%
T1Q,21.9%
E139N,-7.85%
F66N,1.89%
D92I,3.8%
R74D,-6.77%
D3Q,31.3%
R163H,2.34%
F5L,41.5%
N165S,6.77%
E147K,8.63%
V44R,-3.11%
E151A,44.3%
